Results of several laboratories.
Every numbered part comes from another study and shows a few of its results, in no order.
UniProt Q15349, sequence (whole entry, looked up): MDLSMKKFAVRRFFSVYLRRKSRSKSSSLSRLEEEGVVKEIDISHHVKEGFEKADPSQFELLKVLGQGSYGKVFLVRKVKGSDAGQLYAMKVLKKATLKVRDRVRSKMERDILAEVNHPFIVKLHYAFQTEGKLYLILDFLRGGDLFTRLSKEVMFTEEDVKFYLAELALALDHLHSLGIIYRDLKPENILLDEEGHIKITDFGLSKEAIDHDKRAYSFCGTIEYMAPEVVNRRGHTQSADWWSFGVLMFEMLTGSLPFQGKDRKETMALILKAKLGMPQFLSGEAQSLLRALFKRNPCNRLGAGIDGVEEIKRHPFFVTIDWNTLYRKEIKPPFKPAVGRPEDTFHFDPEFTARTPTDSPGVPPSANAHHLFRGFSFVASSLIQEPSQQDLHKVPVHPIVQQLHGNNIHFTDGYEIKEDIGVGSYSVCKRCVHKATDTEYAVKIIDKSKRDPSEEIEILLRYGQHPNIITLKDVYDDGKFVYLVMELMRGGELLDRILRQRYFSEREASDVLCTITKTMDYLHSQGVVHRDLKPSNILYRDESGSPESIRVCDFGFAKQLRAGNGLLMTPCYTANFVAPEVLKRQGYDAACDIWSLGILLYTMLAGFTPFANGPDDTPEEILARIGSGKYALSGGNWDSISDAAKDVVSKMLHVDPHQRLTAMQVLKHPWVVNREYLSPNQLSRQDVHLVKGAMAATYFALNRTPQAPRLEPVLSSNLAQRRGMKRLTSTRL
UniProt O00155, sequence (whole entry, looked up): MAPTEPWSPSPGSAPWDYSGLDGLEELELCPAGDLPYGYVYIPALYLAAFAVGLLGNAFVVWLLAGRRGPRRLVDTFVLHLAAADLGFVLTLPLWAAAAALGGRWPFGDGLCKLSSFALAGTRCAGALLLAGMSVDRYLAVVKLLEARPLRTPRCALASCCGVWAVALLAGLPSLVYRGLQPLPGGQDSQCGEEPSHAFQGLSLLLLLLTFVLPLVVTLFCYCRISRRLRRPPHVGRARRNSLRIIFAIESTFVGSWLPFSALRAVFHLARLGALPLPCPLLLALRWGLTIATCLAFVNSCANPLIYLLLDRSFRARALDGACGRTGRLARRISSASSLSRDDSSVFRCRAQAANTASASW
UniProt Q9UBE8, sequence (whole entry, looked up): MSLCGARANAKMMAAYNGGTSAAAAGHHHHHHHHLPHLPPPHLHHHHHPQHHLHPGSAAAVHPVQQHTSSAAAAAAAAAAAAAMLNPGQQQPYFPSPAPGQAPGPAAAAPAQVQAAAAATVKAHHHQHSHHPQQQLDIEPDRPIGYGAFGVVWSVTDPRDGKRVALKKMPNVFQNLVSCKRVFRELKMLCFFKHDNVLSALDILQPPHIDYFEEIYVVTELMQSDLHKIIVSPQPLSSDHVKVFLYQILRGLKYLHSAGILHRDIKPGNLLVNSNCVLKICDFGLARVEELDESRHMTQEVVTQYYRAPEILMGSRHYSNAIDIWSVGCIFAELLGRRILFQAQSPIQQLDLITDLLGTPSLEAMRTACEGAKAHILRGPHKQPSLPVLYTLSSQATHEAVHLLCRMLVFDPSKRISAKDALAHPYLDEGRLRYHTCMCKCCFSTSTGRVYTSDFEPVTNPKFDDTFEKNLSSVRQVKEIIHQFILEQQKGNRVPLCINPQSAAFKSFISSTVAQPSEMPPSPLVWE
UniProt P42681, sequence (whole entry, looked up): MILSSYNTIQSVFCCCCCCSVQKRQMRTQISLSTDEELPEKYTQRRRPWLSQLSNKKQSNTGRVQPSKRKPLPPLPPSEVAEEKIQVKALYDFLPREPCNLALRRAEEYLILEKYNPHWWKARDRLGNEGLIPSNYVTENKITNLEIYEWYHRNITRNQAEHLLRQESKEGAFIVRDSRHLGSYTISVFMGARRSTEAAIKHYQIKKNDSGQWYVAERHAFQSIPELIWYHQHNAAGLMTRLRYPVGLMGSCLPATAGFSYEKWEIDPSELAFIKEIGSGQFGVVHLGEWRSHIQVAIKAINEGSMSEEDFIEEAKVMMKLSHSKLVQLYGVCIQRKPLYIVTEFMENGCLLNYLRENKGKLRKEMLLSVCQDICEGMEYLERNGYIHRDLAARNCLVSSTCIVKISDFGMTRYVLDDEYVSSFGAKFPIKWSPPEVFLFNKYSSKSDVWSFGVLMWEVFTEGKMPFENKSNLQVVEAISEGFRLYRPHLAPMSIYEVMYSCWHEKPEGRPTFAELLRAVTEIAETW
UniProt P04049, sequence (whole entry, looked up): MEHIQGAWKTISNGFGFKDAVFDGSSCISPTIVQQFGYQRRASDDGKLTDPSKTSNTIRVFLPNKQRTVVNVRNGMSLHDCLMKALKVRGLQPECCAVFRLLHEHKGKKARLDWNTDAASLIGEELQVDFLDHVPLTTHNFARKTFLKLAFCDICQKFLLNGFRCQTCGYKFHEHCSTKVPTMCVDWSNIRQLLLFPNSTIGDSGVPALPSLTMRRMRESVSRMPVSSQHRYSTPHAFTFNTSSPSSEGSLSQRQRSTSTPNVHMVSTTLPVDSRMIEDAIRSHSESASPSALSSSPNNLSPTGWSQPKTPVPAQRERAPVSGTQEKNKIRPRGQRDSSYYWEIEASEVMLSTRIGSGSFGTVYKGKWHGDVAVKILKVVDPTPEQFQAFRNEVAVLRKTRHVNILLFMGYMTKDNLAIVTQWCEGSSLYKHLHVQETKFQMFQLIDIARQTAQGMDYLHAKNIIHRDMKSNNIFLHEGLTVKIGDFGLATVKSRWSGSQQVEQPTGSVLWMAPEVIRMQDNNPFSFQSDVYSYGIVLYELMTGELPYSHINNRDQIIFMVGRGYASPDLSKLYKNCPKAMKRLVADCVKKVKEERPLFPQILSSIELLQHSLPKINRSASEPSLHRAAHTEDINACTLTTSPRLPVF
UniProt Q96P66, sequence (whole entry, looked up): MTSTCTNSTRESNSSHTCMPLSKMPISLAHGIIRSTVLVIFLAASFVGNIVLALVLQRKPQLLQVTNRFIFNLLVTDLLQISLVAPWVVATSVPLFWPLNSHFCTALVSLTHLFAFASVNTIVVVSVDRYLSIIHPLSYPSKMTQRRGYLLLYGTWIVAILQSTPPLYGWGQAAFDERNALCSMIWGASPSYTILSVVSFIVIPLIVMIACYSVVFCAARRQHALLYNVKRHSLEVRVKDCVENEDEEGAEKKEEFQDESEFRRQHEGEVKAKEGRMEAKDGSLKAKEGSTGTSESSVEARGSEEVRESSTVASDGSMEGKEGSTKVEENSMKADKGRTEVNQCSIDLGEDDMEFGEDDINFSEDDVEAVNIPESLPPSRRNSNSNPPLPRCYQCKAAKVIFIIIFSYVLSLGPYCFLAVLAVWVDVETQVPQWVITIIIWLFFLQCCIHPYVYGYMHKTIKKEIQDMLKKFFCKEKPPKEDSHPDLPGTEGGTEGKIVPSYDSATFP
UniProt Q13464, sequence (whole entry, looked up): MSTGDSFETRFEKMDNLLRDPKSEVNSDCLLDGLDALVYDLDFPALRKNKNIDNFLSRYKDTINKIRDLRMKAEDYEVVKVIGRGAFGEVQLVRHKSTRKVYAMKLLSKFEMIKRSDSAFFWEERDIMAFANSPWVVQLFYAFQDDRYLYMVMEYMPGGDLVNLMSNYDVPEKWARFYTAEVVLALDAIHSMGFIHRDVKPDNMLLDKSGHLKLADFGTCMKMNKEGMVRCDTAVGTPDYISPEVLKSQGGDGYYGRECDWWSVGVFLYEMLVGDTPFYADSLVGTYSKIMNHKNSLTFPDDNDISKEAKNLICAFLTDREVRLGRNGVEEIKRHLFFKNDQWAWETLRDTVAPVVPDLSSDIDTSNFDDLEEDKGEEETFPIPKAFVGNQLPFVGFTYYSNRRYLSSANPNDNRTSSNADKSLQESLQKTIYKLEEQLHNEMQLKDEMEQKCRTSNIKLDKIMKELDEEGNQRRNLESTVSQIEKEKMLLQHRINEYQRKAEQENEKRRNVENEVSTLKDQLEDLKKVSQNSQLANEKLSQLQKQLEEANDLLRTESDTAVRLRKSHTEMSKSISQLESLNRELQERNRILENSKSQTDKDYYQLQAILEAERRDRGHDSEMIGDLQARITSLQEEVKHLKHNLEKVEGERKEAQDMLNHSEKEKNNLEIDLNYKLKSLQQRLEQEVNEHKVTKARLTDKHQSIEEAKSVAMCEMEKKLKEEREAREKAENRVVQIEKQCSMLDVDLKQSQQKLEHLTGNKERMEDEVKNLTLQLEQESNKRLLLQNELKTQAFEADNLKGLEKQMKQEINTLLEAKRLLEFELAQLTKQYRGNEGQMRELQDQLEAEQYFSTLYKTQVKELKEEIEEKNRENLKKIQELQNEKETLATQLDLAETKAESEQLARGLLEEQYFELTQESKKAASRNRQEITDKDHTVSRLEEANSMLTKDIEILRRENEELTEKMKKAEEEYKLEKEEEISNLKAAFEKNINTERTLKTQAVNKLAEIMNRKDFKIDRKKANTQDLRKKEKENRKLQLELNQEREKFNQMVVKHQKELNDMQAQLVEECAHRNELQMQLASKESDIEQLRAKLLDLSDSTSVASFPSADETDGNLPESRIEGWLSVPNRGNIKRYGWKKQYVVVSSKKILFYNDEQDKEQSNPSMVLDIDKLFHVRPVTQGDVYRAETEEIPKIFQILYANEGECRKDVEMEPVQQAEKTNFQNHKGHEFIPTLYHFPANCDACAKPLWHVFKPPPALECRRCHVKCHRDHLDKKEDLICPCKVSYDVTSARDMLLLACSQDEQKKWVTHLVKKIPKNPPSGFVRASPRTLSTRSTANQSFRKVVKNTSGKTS
UniProt P32246, sequence (whole entry, looked up): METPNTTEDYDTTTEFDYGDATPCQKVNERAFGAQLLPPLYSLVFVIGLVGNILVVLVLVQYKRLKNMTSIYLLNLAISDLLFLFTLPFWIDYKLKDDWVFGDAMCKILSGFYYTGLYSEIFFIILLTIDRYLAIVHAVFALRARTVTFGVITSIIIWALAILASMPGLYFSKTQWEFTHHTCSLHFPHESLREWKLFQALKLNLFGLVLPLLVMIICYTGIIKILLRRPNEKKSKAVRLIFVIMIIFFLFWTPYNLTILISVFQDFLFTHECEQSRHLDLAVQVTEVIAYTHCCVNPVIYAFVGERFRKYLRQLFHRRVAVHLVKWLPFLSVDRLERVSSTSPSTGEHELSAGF

Block 1 — mode: inhibitor; concentration: 10 µM; baseline: control
Target: Diamine acetyltransferase 1 (Homo sapiens, UniProt P21673)
Construct (P21673 1-171): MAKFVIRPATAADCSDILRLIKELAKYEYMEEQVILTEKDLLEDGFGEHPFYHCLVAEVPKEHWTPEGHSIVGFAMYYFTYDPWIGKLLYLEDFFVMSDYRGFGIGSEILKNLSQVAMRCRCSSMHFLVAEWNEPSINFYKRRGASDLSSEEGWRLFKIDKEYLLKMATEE
Structure (SMILES) | remaining activity
COC(=O)/C=C/c1ccccc1 | 84.9%
C/C=C/C=C/C(=O)O | 84.1%
Cc1cc(O)cc2c1O[C@](C)(CCC[C@H](C)CCC[C@H](C)CCCC(C)C)CC2 | 95.7%
O=C(O)Cc1ccccc1O | 102%
COc1cc(O)c2c(=O)c(O)c(-c3ccc(OC)c(O)c3)oc2c1 | 112%
C[C@H]1CC[C@@]2(OC1)O[C@H]1C[C@H]3[C@@H]4CC=C5C[C@@H](O)CC[C@]5(C)[C@H]4CC[C@]3(C)[C@H]1[C@@H]2C | 96.8%
COc1cc2ccc(=O)oc2cc1O[C@@H]1O[C@H](CO)[C@@H](O)[C@H](O)[C@H]1O | 103%
O=P(O)(O)O[C@H]1[C@H](OP(=O)(O)O)[C@@H](OP(=O)(O)O)[C@H](OP(=O)(O)O)[C@@H](OP(=O)(O)O)[C@H]1OP(=O)(O)O | 83.8%
OCCCc1ccccc1 | 86%

Block 2 — read-out: enzyme activity; mode: inhibitor; concentration: 0.5 µM; baseline: control
Target: Cyclin-dependent kinase 2, with cyclin A (CDK2, Homo sapiens, UniProt P24941)
SMILES | remaining activity [%]
O=c1cc(N2CCOCC2)oc2c(-c3ccccc3)cccc12 | 106
O=C(O)/C=C/c1cc(Br)c(Br)c(Br)c1Br | 85.6
O=C1Nc2ccc(Br)cc2/C1=C/c1cc2c([nH]1)CCCC2 | 90.8
c1ccc(-c2n[nH]c3c2oc2ccccc23)cc1 | 88.1
CC(C)(C)c1nc2c3cc[nH]c(=O)c3c3cc(F)ccc3c2[nH]1 | 86.2
CCCCc1c(-c2ccc(O)cc2)[nH]c2nccnc12 | 22.4
Cc1cc(Nc2cc(N3CCN(C)CC3)nc(Sc3ccc(NC(=O)C4CC4)cc3)n2)[nH]n1 | 87.8
Nc1nc(Nc2ccc(S(N)(=O)=O)cc2)nn1C(=S)Nc1c(F)cccc1F | 1.56
O=C1NC(=O)c2c1c1c3ccccc3[nH]c1n1cncc21 | 75.9
CC(C)N(CCC(=O)c1ccc2ccccc2c1)Cc1ccccc1 | 109
NC(=O)c1ccc(-c2nc(-c3ccc4c(c3)OCCO4)c(-c3ccccn3)[nH]2)cc1 | 95
CN1CCN(c2ccc3nc(-c4c(N)c5c(F)cccc5[nH]c4=O)[nH]c3c2)CC1 | 91
N#CC(c1ccnc(NCCc2cccnc2)n1)c1nc2ccccc2s1 (stereo not shown) | 94.4
Cc1ccc(S(=O)(=O)/C=C/C#N)cc1 | 98
O=C1NC(=O)/C(=C/c2ccc3c(c2)OC(F)(F)O3)S1 | 107
O=Nc1c(-c2c(O)[nH]c3ccccc23)[nH]c2ccccc12 | 29.6
CCCCc1c(-c2ccc(OC)cc2)[nH]c2nccnc12 | 36.3
FC(F)(F)c1ccc(/C=C/c2nc(COc3ccc(CCCCn4ccnn4)cc3)co2)cc1 | 87.9
N#Cc1cnc2cnc(NCc3cccnc3)cc2c1Nc1ccc(F)c(Cl)c1 | 75.1
CN(C)S(=O)(=O)c1ccc2c(c1)/C(=C/c1cc3c([nH]1)CCCC3)C(=O)N2 | 90.6
CNc1cc2c(Nc3cccc(Br)c3)ncnc2cn1 | 106
COc1cccc(-c2cc(=O)c3ccccc3o2)c1N | 102
O=Nc1c(-c2c(O)[nH]c3cc(Br)ccc23)[nH]c2ccccc12 | 7.66
O=C1NC(=O)c2c1c1c3ccccc3[nH]c1c1[nH]c3cc(Br)ccc3c21 | 52.5
NC(=O)c1cccc(-c2cc(Nc3ccc(OC(F)(F)F)cc3)ncn2)c1 | 96.5

Block 3 — SMILES: CCN(c1nc(N)c(C(=O)N=C(N)N)nc1Cl)C(C)C; read-out: β-arrestin recruitment; mode: agonist; technique: PRESTO-Tango; concentration: 10 µM; baseline: untreated
target | fold over basal
N-formyl peptide receptor 3 (Homo sapiens, UniProt P25089) | 0.59 fold
GPR101 (Homo sapiens, UniProt Q96P66) | 1.08
CCR1 (Homo sapiens, UniProt P32246) | 0.56
NPBWR1 (Homo sapiens, UniProt P48145) | 0.91
Probable G-protein coupled receptor 25 (GPR25, Homo sapiens, UniProt O00155) | 0.97
Adhesion G-protein coupled receptor G5 (ADGRG5, Homo sapiens, UniProt Q8IZF4) | 0.97

Block 4 — species: human; matrix: microsomes or S9; concentration: 2 µM; time: 0.5 h
Structure (SMILES) | remaining compound [%]
CC(C)c1nc2sc3c(c2c(=O)[nH]1)CC(C)(C)OC3 | 66.4
CC(C)C(C(=O)Nc1cccc2[nH]ccc12)N1Cc2ccccc2C1=O (stereo not shown) | 49.3
O=C(Cn1nc(C(=O)N2CCc3ccccc32)c2cc(F)ccc21)OCc1ccccc1 | 2.68
O=C(O)c1ccc(-c2nc3scc(-c4ccc(F)cc4)c3c(=O)[nH]2)cc1 | > 99
Cc1ccc(N2C(=O)C(=N)c3c2sc(C)c3C)cc1 | 48.2
COC(=O)CC(c1cnn(C(C)C)c1)c1c(O)cc(C)n(CCc2c[nH]cn2)c1=O (stereo not shown) | 96.4
CN(Cc1ccccc1)C(=O)c1c(OCC2CC2)cc(=O)n2c1CCOCC2 | 99.3
O=C1COc2ccc(Cl)cc2CN1Cc1cc(F)cc(F)c1 | 54.9
Cc1ccc(/C=C/c2onc(C)c2S(=O)(=O)N2CCC(C(=O)Nc3cccnc3)CC2)cc1 | 90.6

Block 5 — read-out: cell-free assay; technique: competition with immobilised ligand; concentration: 1 µM
Compound: Cc1cc(NC(=O)c2cccc(S(F)(F)(F)(F)F)c2)cc(-n2ccn3nc(-c4cccnc4)cc23)c1
target | remaining binding
ERBB3 (Homo sapiens, UniProt P21860) | 49.4%
STK4 (Homo sapiens, UniProt Q13043) | 100%
RAF1 (Homo sapiens, UniProt P04049) | 29.4%
Ribosomal protein S6 kinase alpha-2, C-terminal kinase domain (RPS6KA2, Homo sapiens, UniProt Q15349) | 100%
TXK (Homo sapiens, UniProt P42681) | 56.2%
KIT (Homo sapiens, UniProt P10721, D816V) | 100%
NLK (Homo sapiens, UniProt Q9UBE8) | 100%
Tyrosine-protein kinase ABL1, phosphorylated (ABL1, Homo sapiens, UniProt P00519, Q252H) | 100%
ROCK1 (Homo sapiens, UniProt Q13464) | 74.8%
